Published values from different studies.
Lines come from different studies, so protocols differ. ± gives the spread as reported.
TDP1: Tyrosyl-DNA phosphodiesterase 1 (TDP1, Homo sapiens, UniProt Q9NUW8)
Chain of UniProt Q9NUW8 (whole entry, looked up): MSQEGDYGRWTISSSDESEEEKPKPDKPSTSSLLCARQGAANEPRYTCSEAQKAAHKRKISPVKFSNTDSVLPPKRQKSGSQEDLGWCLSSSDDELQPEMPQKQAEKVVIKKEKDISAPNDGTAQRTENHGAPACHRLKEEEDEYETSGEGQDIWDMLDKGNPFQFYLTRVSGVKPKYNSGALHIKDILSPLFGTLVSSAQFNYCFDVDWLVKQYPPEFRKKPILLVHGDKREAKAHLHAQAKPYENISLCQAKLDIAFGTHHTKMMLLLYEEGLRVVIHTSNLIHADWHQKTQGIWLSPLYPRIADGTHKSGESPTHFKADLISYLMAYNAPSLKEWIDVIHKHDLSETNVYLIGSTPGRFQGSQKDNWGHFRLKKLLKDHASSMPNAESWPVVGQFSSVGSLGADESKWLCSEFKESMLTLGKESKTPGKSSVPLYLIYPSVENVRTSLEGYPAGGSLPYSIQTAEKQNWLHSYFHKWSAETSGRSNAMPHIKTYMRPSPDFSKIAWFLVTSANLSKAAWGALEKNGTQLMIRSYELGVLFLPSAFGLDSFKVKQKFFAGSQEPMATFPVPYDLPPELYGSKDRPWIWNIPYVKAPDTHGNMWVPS
CHRM3: Muscarinic acetylcholine receptor M3 (CHRM3, Homo sapiens, UniProt P20309)
Chain of UniProt P20309 (whole entry, looked up): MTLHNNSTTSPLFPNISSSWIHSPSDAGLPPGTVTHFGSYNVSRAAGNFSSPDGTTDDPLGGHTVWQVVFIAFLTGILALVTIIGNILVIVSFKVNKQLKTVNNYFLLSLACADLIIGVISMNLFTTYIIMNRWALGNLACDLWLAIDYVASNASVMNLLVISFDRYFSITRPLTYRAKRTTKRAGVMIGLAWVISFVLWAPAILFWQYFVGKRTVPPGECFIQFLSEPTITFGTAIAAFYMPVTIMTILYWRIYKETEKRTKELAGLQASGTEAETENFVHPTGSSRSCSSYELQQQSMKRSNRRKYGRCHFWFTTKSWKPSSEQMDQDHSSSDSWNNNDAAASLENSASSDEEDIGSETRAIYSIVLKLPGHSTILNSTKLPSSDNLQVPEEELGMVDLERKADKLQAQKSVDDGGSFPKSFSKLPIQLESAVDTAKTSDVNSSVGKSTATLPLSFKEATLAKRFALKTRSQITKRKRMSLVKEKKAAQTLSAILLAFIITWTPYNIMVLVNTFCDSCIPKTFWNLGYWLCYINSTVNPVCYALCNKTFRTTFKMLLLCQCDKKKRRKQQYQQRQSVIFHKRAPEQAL

`Cc1c(C=NOCc2ccc(-c3nc4cc(-c5ccccc5)ccn4c3Nc3ccc(C(=O)O)cc3)cc2)c2ccccc2n1CC(=O)O` (mixture of isomers) gave an inhibition of 79.3% (TDP1; enzyme activity, inhibitor; 100 µM, unpurified compound).
For `COc1ncc2nc(C)n(Cc3ncc(S(N)(=O)=O)cc3F)c2c1-c1ccccc1`, the activation was -0.209% (CHRM3; agonist, cell-based; 10 µM).
With `COc1ccc(S(=O)(=O)N2CCc3ccccc3C2)cc1N1CCN(C(=O)c2ccc(F)cc2C(F)(F)F)CC1` the inhibition was 10.9% (CHRM3; ligand displacement, radioligand; 1 µM).
For `COCC(=O)N1CCc2cc(-c3csc(NC(=O)c4cc(OC)cc(OC)c4)n3)ccc21`, the inhibition was 0% (CHRM3; cell-free assay; 10 µM).
With `CO[C@@H](C)c1c(NC(=O)Nc2cnc(-n3nccn3)c(C(F)(F)F)c2)cnc2sc(C)nc12` the inhibition was 0.7% (CHRM3; ligand displacement, radioligand; 10 µM).
The Emax of `CCCCOc1ccc(C(=O)OCCN2CC=CCC2)cc1` is reported as 1.48 ± 0.09 fold (CHRM3; membranes; 100 µM, 15 h, added: carbachol; baseline: control).
With `Cn1ccc2cc(-n3c(=O)[nH]c4sc5c(c4c3=O)CCCC5)ccc21` the inhibition was -12% (CHRM3; cell-free assay, radioligand; 10 µM).
With `C=CCn1c(=O)c2ccccc2n2c(SC(C(=O)OCC)c3ccccc3)nnc12` (stereo not shown) the maximal stimulation was 113 ± 1% (CHRM3; agonist; 16 h, added: [3H]NMS).
`COc1ccc(C=NOCc2ccc3nc(-c4ccccc4)c(Nc4ccc(C(=O)O)cc4)n3c2)cc1Cn1cccn1` (mixture of isomers) has an inhibition of 15.8% (TDP1; enzyme activity, inhibitor; 100 µM, unpurified compound).
The Emax of `CCCCOc1ccc(C(=O)OCC[N+]2(C)CC=CCC2)cc1` (stereo not shown) is reported as 1.34 ± 0.07 fold (CHRM3; membranes; 100 µM, 15 h, added: carbachol; baseline: control).
With `C=CCn1c(=O)c2ccccc2n2c(SCC(=O)NCc3ccc(NC(C)=O)cc3)nnc12` the maximal stimulation was 117 ± 7% (CHRM3; agonist; 16 h, added: [3H]NMS).
With `O=C1c2sc(-c3ccc(N4CCC(CO)CC4)nc3F)nc2CCN1c1cccnc1` the inhibition was -5% (CHRM3; ligand displacement, radioligand; 1 µM).
With `CCCCCCOc1ccc(C(=O)OCC[N+]2(C)CC=CCC2)cc1` (stereo not shown) the basal binding was 0.79 ± 0.05 fold (CHRM3; membranes; 10 µM, 15 h, no carbachol; baseline: control).
With `CC(C)Cn1c(SCC(=O)N2CCc3ccccc3C2)nc2cc(Cl)ccc2c1=O` the inhibition was 19% (CHRM3; ligand displacement, radioligand; 10 µM).
`O=C(CCNC(=O)CNC(=O)CC(c1ccccc1)(c1ccccc1)c1ccccc1)NC[C@@H]1CCCN(Cc2ccc(F)cc2)C1` has a selectivity ratio of greater than 45 (CHRM3; [3H]N-methylscopolamine competition; baseline: M4 over M3 Ki).
`C=CCn1c(=O)c2ccccc2n2c(SCC(=O)NC3CC3)nnc12` has a maximal stimulation of 128 ± 3% (CHRM3; agonist; 16 h, added: [3H]NMS).
The inhibition of `C[Si](C)(C)C[C@@H](CN)CC(=O)O` is reported as 3% (CHRM3; ligand displacement, radioligand; 75 µM).
With `CCCCCCOc1ccc(C(=O)OCCN2CC=CCC2)cc1` the basal binding was 0.91 ± 0.02 fold (CHRM3; membranes; 100 µM, 15 h, no carbachol; baseline: control).
`COc1ccc(C(=O)Nc2c(-c3cccs3)nc3ccccn23)cc1` has an inhibition of less than 50% (CHRM3; ligand displacement, radioligand; 10 µM).

Some of these lines once more:
With `C=CCn1c(=O)c2ccccc2n2c(SC(C(=O)OCC)c3ccccc3)nnc12` (stereo not shown) the maximal stimulation was 113 ± 1% (CHRM3; agonist; 16 h, added: [3H]NMS).
`COc1ccc(C=NOCc2ccc3nc(-c4ccccc4)c(Nc4ccc(C(=O)O)cc4)n3c2)cc1Cn1cccn1` (mixture of isomers) has an inhibition of 15.8% (TDP1; enzyme activity, inhibitor; 100 µM, unpurified compound).
